# Assay results from different studies.
# A part holds a random share of what one study measured. Values joined by “and” are separate records of one study, mostly repeats; a detail may differ.
# Chain of UniProt Q59H18 (whole entry, looked up): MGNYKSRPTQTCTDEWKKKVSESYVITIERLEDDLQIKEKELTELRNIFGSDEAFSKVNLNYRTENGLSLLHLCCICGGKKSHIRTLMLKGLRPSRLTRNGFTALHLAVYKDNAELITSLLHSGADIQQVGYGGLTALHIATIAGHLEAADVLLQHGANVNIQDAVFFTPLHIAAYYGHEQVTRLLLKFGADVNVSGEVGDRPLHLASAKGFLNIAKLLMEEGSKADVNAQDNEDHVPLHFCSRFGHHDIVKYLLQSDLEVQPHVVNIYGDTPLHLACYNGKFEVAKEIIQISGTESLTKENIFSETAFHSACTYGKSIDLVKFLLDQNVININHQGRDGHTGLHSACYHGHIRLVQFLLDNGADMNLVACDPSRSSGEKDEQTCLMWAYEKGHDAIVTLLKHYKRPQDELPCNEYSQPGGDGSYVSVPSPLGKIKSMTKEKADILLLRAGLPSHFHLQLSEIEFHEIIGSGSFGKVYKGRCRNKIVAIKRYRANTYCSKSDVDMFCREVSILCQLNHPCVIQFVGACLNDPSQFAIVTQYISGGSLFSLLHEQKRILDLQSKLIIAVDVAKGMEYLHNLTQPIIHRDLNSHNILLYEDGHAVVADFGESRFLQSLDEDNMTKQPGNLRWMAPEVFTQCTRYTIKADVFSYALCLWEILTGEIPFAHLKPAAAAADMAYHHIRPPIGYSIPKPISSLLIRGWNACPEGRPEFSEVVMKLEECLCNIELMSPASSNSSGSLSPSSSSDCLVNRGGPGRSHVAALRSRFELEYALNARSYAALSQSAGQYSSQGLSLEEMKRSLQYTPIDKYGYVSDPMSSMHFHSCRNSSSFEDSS
# Chain of UniProt Q9UF33 (whole entry, looked up): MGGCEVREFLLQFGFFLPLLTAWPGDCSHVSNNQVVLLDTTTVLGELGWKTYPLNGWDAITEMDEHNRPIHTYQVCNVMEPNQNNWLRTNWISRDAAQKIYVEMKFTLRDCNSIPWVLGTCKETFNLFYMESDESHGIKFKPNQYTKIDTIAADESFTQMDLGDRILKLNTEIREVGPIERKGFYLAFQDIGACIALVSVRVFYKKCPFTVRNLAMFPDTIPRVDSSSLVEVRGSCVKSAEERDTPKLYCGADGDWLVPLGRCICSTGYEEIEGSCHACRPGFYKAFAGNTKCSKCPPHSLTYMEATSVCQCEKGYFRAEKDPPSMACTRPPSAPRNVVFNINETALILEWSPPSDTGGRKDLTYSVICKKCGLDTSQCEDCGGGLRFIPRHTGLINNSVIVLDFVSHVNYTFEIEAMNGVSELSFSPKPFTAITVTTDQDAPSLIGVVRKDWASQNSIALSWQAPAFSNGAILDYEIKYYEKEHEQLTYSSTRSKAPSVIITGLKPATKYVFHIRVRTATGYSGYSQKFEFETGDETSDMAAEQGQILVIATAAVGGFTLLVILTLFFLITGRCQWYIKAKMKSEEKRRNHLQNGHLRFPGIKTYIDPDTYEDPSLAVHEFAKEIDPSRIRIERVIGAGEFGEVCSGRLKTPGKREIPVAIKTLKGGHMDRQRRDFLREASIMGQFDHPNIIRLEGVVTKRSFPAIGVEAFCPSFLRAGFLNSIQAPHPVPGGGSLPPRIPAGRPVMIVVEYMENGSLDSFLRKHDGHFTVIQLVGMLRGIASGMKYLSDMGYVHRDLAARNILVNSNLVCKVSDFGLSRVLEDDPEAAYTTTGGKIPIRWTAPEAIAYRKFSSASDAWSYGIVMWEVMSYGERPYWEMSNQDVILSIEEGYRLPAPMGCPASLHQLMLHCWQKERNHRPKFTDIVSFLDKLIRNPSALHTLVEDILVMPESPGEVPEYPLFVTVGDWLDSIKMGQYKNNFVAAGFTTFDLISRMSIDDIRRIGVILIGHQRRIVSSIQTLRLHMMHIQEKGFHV
# Chain of UniProt P42336 (whole entry, unmodified, looked up): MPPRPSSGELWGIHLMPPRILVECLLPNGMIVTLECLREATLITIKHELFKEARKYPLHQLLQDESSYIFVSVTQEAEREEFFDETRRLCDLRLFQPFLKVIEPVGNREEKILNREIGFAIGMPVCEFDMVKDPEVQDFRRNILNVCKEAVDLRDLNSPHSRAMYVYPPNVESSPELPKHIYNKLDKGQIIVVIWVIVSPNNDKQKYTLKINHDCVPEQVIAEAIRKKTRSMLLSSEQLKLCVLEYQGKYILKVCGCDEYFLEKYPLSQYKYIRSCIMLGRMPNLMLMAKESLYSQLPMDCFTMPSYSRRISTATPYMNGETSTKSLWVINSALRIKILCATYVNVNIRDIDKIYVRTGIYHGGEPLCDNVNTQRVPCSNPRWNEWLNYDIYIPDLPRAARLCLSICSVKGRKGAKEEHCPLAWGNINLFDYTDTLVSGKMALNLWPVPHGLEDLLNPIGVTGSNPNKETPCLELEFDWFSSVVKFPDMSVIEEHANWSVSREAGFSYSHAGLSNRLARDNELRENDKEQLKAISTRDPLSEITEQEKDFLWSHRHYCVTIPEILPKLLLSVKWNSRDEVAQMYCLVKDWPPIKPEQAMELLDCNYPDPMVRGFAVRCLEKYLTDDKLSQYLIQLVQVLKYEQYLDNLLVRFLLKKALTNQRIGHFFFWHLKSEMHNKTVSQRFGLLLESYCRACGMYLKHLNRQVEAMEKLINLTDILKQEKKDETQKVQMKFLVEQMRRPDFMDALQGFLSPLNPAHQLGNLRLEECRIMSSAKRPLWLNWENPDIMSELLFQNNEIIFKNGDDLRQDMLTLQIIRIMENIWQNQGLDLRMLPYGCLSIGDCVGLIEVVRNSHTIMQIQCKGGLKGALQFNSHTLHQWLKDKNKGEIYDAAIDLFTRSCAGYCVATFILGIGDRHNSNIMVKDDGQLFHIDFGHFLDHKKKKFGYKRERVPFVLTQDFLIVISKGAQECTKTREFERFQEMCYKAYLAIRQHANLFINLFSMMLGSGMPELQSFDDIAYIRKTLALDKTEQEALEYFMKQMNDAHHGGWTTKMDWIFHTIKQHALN
# Chain of UniProt P49137 (whole entry, looked up): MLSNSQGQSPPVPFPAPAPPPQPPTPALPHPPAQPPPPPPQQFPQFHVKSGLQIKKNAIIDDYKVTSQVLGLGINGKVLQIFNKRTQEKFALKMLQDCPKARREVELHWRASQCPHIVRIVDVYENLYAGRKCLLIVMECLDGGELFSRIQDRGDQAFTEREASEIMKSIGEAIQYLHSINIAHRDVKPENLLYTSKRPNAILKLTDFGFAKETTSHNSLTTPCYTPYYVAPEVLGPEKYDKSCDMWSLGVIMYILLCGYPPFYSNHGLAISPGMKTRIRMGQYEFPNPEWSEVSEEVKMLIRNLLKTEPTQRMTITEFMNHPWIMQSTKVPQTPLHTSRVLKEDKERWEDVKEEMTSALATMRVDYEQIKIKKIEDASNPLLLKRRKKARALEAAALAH

# Study 1 — effect on: enzyme activity; action: inhibitor; technique: Ub-TR-FRET; matrix: HECT domain; concentration: 1.235 µM; reading: higher = more chain formation
# Target: E3 ubiquitin-protein ligase NEDD4, HECT domain (Homo sapiens, UniProt P46934)
# Residues (P46934 938-1319, limits assumed): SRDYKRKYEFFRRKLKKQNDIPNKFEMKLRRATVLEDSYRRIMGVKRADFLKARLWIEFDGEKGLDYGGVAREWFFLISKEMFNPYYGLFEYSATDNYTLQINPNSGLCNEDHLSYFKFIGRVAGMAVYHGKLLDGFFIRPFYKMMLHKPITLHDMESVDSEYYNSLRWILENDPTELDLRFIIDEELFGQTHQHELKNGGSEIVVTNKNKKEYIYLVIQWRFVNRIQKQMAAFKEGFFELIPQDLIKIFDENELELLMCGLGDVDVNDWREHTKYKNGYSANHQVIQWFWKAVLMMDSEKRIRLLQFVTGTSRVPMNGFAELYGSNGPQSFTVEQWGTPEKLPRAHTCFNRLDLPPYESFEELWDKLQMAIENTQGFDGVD
SMILES,ubiquitin chain formation AUC
CCOC(=O)/C=C/CNCCCCN1c2cc(Cl)ccc2COc2ccccc21.O=C(O)/C=C\C(=O)O,50800 a.u. and 44500 a.u. and 34900 a.u.
COC(=O)CCCNCCCN1c2ccccc2CCc2ccc(Cl)cc21.COC(=O)CCCNCCCN1c2ccccc2CCc2ccc(Cl)cc21.O=C(O)/C=C/C(=O)O,129000 a.u. and 128000 a.u.
CCOC(=O)/C=C/CN(CCCCN1c2ccccc2CCc2ccc(Cl)cc21)C(C)C.O=C(O)/C=C\C(=O)O,60100 a.u. and 59800 a.u. and 60900 a.u. and 59400 a.u. and 58500 a.u.
CNC(=O)/C=C/CNCCCN1c2ccccc2CCc2ccc(Cl)cc21.Cl,129000 a.u. and 130000 a.u.
CN(C)C/C=C/C(=O)NCCCN1c2ccccc2CCc2ccc(Cl)cc21,130000 a.u. and 128000 a.u. and 129000 a.u.
CCONC(=O)/C=C/CNCCCCN1c2ccccc2CCc2ccc(Cl)cc21.O=C(O)/C=C\C(=O)O,13700 a.u. and 7770 a.u. and 15300 a.u. and 8050 a.u. and 14300 a.u. and 8180 a.u.
Cl.NC(=O)/C=C/CNCCCN1c2ccccc2CCc2ccc(Cl)cc21,137000 a.u. and 135000 a.u.
CNC(=O)/C=C/CNCCCCN1c2ccccc2CCc2ccc(Cl)cc21.Cl,67200 a.u. and 84900 a.u. and 83600 a.u. and 81400 a.u. and 68000 a.u. and 67400 a.u.
CCOC(=O)/C=C/CNCCCCN1c2cc(Cl)ccc2CCc2cnn(C)c21.O=C(O)/C=C\C(=O)O,20200 a.u. and 7400 a.u. and 7610 a.u. and 8260 a.u. and 20600 a.u. and 20000 a.u.

# Study 2 — concentration: 1 µM
# Structure (SMILES): CC[C@@]1(c2cccc(C(F)(F)F)c2)C2=C(Nc3n[nH]cc31)[C@H](F)C(C)(C)CC2=O (single isomer, unassigned)
target,assay,how to read,remaining binding [%]
"PIK3CA (Homo sapiens, UniProt P42336, E545A)","kinase binding, KINOMEscan",reference: DMSO control,88
"FLT4 (Homo sapiens, UniProt P35916)","kinase binding, KINOMEscan",reference: DMSO control,100
"YES1 (Homo sapiens, UniProt P07947)","kinase binding, KINOMEscan",reference: DMSO control,95
"RET (Homo sapiens, UniProt P07949, V804M)","kinase binding, KINOMEscan",reference: DMSO control,100
"JAK3 (Homo sapiens, UniProt P52333)","kinase binding, KINOMEscan",reference: DMSO control,100
"MAPK6 (Homo sapiens, UniProt Q16659)","kinase binding, KINOMEscan",reference: DMSO control,98
"EPHA6 (Homo sapiens, UniProt Q9UF33)","binding, competition with immobilised ligand",,100
"MAPKAPK2 (Homo sapiens, UniProt P49137)","kinase binding, KINOMEscan",reference: DMSO control,91
"Tyrosine-protein kinase ABL1, non-phosphorylated (ABL1, Homo sapiens, UniProt P00519, H396P)","kinase binding, KINOMEscan",reference: DMSO control,48
"TNNI3K (Homo sapiens, UniProt Q59H18)","kinase binding, KINOMEscan",reference: DMSO control,78
"KDR (Homo sapiens, UniProt P35968)","kinase binding, KINOMEscan",reference: DMSO control,100
"ALK (Homo sapiens, UniProt Q9UM73)","kinase binding, KINOMEscan",reference: DMSO control,73
"EGFR (Homo sapiens, UniProt P00533, G719C)","binding, competition with immobilised ligand",,100
"PIM3 (Homo sapiens, UniProt Q86V86)","kinase binding, KINOMEscan",reference: DMSO control,100
"SNRK (Homo sapiens, UniProt Q9NRH2)","binding, competition with immobilised ligand",,67
"NEK10 (Homo sapiens, UniProt Q6ZWH5)","binding, competition with immobilised ligand",,100

# Study 3 — effect on: binding; technique: HTRF
# SMILES: Cc1ccnc(C)c1-c1cnc2[nH]c(-c3ccc(N4CCN(C)CC4)nc3C)nc2c1
# Target: Membrane-associated tyrosine- and threonine-specific cdc2-inhibitory kinase (PKMYT1, Homo sapiens, UniProt Q99640)
# Target sequence (Q99640 1-499): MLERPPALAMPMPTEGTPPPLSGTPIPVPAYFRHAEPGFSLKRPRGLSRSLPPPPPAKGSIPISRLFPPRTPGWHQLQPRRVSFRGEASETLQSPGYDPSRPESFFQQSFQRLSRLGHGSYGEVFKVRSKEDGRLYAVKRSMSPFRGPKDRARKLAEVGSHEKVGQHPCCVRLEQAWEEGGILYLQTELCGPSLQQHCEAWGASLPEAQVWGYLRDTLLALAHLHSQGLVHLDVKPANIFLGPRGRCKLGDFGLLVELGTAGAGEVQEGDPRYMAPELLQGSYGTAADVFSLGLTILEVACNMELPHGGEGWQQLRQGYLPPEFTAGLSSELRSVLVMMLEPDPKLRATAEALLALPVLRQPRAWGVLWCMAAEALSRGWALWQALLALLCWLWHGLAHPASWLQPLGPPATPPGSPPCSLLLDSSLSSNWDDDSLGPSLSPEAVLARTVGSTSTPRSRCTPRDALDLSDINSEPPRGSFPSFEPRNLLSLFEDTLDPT
conditions,inhibition
4.57 nM,-15.1% and -7.83%
0.51 nM,-9.32% and -11.9%
41.15 nM,-20.2% and -16.2%
370.37 nM,-13.3% and -17.9%
1111.11 nM,-14.8% and -6.06%
0.0169 nM,3.92% and -4.87%
123.46 nM,-18.8% and -19.7%
10000 nM,8.06% and 14.8%

# Study 4 — effect on: thermal unfolding; technique: differential scanning fluorimetry; concentration: 5.5 µM; reading: higher = more unfolded
# Compound: C[C@@H]1CN(c2ccc(-c3cc(C(=O)NCCOCCOCCOCCOCCOCCOCCNC(=O)/C=C/c4[nH]cc(C(=O)N[C@@H](CC(N)=O)c5ccc(F)c(Cl)c5)c4-c4ccc(Cl)cc4F)ccc3F)cc2NC(=O)c2ccc(F)cc2C(F)(F)F)C[C@H](C)N1C
# WDR5: WD repeat-containing protein 5 (WDR5, Homo sapiens, UniProt P61964)
# DCAF1: DDB1- and CUL4-associated factor 1 (DCAF1, Homo sapiens, UniProt Q9Y4B6)
# Chain of UniProt Q9Y4B6 (whole entry, looked up): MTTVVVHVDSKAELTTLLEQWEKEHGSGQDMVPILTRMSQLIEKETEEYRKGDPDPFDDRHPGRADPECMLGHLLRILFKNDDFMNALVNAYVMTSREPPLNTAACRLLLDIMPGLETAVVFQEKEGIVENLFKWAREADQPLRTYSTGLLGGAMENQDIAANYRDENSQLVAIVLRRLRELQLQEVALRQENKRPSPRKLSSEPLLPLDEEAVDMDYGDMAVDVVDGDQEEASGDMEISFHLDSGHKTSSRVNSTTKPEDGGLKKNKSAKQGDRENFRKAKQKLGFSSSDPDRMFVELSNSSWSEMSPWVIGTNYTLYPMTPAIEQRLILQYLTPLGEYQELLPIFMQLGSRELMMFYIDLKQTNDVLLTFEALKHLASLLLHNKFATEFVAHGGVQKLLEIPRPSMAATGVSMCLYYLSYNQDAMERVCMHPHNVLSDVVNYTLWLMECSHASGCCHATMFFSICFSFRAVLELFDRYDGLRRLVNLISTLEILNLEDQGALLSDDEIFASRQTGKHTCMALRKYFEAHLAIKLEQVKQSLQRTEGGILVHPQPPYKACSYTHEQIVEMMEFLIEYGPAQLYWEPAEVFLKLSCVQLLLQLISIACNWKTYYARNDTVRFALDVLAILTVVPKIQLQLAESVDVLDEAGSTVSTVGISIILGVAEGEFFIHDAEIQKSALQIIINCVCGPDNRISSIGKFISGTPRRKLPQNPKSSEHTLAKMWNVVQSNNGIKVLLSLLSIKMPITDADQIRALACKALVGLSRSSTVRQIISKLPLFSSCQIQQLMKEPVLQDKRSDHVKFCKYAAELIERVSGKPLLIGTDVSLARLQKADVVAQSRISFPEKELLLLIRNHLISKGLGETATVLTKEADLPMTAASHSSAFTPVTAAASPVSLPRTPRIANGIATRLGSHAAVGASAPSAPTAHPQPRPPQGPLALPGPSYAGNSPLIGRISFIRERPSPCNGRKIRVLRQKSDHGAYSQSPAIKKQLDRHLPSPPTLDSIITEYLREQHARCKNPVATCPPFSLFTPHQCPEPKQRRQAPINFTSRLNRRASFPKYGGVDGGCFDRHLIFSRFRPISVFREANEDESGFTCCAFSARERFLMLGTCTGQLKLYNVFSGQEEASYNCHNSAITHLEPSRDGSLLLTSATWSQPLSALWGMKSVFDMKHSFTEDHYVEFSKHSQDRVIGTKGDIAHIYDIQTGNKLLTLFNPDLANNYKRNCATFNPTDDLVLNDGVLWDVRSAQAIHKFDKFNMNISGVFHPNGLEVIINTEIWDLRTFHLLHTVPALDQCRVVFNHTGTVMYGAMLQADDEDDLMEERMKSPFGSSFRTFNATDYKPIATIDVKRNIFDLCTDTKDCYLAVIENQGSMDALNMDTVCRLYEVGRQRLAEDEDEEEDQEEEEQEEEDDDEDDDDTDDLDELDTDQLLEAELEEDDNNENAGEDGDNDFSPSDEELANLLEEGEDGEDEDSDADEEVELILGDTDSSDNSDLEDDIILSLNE
target,conditions,SYPRO Orange fluorescence [a.u.]
WDR5,27.6 °C,13400
WDR5,80.01 °C,64700
WDR5,70.01 °C,27300
DCAF1,50.2 °C,18200
DCAF1,27.4 °C,7740
DCAF1,84.81 °C,36100
DCAF1,49.8 °C,17900
WDR5,32 °C,13700
WDR5,37.6 °C,13800
DCAF1,71.61 °C,46600
WDR5,86.61 °C,59900

# Excerpt of the above (study 4):
target,conditions,SYPRO Orange fluorescence [a.u.]
WDR5,86.61 °C,59900
WDR5,37.6 °C,13800
DCAF1,50.2 °C,18200
